Results collected from several papers.
Lines come from different studies, so protocols differ. ± gives the spread as reported.
Cnr2: Cannabinoid receptor 2 (Cnr2, Mus musculus, UniProt P47936)
UniProt P47936, sequence (whole entry, looked up): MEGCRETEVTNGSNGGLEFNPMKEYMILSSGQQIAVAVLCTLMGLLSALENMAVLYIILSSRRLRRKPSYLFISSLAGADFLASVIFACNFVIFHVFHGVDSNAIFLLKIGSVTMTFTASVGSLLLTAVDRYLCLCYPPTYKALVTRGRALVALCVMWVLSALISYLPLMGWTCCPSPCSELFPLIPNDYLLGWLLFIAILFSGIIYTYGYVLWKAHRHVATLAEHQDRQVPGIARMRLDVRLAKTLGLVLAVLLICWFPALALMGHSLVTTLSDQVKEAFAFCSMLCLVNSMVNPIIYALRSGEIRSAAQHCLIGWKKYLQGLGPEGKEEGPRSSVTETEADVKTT
STING1 H232R: Stimulator of interferon genes protein (STING1, Homo sapiens, UniProt Q86WV6, H232R)
UniProt Q86WV6, sequence (whole entry, unmodified, looked up): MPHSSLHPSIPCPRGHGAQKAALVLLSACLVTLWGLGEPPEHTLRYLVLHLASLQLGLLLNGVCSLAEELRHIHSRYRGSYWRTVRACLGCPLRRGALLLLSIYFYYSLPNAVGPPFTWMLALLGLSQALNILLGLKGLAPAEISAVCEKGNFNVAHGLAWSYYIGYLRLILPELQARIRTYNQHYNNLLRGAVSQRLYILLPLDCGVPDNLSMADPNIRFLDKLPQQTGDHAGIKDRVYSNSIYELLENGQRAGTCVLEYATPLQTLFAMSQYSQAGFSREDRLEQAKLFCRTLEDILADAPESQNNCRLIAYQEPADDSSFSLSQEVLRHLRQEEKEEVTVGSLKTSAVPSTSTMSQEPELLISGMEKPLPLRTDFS
UniProt Q8NHB7, sequence (whole entry, unmodified, looked up): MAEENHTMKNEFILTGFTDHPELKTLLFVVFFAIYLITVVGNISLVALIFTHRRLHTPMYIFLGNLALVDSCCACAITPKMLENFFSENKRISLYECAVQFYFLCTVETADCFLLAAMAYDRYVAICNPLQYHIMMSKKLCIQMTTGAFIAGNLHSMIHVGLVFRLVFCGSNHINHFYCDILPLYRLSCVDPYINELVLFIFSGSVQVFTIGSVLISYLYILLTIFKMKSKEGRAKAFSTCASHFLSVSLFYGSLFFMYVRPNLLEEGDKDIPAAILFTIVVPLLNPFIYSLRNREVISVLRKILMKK
UniProt P21453, sequence (whole entry, looked up): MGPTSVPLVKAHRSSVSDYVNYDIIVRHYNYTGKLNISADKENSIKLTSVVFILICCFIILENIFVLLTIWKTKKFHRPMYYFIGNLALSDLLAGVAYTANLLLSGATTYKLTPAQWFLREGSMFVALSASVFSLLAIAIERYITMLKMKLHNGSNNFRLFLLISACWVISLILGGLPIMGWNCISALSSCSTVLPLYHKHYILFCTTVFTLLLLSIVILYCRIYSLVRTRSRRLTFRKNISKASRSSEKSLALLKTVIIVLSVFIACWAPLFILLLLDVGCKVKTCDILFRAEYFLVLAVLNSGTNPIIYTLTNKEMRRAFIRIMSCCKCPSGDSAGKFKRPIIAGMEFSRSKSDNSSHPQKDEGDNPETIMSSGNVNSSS
UniProt Q9UNW8, sequence (whole entry, looked up): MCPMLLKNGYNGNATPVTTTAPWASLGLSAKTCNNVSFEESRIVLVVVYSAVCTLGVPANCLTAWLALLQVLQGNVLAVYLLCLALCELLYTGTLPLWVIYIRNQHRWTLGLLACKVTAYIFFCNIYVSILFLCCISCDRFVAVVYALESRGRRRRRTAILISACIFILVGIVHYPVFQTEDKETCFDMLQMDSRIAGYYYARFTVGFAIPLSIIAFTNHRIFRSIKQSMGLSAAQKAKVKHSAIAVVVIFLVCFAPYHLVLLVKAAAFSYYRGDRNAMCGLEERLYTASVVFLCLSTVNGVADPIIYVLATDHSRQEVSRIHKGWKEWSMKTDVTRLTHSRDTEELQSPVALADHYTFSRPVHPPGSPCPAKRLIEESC
UniProt A7T1N0, sequence (whole entry, unmodified, looked up): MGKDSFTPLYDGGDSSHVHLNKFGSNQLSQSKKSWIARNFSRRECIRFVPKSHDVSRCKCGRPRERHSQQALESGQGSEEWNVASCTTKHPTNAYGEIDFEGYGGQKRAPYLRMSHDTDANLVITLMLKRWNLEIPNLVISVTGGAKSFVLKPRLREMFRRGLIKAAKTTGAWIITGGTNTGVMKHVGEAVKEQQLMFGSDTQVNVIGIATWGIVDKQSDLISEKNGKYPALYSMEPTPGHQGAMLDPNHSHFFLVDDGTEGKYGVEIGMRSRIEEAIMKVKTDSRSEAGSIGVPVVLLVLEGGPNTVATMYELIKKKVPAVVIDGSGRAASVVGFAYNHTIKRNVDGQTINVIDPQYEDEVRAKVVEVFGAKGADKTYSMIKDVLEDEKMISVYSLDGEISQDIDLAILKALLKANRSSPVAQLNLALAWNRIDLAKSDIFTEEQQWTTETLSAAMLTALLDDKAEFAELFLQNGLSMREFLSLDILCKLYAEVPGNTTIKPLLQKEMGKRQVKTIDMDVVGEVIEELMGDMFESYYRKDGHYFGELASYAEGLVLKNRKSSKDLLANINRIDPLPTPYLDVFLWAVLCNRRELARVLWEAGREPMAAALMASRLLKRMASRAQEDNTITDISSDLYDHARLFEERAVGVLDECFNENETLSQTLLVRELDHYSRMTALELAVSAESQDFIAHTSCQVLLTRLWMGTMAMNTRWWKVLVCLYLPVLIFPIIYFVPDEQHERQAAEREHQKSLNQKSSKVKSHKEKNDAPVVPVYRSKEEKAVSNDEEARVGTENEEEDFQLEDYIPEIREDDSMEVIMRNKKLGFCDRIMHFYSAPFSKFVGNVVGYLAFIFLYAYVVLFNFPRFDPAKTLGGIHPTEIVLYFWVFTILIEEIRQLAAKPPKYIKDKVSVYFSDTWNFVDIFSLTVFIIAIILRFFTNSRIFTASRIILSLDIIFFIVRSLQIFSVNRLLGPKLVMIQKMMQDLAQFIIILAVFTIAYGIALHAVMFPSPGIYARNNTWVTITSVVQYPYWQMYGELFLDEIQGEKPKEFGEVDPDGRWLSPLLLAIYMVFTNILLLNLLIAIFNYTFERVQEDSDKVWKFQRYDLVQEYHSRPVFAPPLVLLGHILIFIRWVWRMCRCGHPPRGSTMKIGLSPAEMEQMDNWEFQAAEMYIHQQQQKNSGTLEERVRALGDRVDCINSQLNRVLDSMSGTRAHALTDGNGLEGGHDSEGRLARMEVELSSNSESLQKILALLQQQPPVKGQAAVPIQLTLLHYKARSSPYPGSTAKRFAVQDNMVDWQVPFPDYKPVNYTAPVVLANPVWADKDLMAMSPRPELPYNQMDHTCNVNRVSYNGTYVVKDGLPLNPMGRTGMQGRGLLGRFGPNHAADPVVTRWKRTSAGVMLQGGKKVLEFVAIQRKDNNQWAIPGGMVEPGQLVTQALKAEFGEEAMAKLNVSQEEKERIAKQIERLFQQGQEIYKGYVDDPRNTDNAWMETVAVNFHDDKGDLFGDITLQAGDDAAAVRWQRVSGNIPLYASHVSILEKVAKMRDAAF
UniProt O75762, sequence (whole entry, unmodified, looked up): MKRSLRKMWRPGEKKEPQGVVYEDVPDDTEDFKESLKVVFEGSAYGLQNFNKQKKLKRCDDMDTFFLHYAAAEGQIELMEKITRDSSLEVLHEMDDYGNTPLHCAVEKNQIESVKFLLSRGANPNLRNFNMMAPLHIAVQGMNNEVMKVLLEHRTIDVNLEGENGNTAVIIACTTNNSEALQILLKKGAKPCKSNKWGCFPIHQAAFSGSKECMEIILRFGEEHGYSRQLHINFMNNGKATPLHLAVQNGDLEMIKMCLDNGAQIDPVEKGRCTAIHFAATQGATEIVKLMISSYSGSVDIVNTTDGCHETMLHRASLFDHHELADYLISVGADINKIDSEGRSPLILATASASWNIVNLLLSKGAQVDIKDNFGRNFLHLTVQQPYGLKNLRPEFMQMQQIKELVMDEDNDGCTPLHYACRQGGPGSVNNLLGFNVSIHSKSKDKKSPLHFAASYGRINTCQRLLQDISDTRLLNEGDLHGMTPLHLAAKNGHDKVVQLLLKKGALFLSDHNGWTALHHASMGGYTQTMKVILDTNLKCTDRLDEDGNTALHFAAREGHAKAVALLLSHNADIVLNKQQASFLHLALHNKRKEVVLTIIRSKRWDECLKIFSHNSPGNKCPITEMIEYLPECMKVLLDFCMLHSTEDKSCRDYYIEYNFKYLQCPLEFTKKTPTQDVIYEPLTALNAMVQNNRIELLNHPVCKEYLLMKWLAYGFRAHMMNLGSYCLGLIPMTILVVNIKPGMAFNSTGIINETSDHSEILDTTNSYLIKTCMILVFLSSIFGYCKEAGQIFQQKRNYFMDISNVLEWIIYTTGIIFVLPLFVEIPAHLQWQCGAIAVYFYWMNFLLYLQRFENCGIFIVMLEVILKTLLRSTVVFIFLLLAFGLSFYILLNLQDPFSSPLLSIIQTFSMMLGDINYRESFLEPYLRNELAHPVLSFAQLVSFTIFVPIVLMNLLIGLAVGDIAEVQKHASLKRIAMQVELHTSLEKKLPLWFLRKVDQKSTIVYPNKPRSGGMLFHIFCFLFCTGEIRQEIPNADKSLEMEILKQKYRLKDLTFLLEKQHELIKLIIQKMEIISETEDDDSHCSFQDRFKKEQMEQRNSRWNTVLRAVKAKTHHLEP
UniProt Q92847, sequence (whole entry, unmodified, looked up): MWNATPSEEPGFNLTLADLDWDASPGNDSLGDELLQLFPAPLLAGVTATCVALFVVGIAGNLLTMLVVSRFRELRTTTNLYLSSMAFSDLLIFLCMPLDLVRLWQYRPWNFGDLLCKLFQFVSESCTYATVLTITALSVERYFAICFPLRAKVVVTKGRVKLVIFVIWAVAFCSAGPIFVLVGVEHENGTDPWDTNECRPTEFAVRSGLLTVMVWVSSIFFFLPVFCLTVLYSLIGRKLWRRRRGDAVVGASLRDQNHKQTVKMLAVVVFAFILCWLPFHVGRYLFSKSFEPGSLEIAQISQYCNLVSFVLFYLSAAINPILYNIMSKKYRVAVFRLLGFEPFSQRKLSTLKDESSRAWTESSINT

O=S(=O)(c1ccc2c(c1)OCO2)n1cc(CCCCN2CCC(=C(c3ccc(F)c(F)c3)c3ccc(F)c(F)c3)CC2)nn1  EC50 (PFKL (Homo sapiens, UniProt P17858); enzyme activity, activator, ADP-Glo; 1): 619 nM
O=C1C2=C(CCN(Cc3ccccc3)C2)N2CCN=C2N1Cc1ccc(C(F)(F)F)cc1  EC50 (GPR132 (Homo sapiens, UniProt Q9UNW8); agonist): 405 nM
CCOC(=O)[C@](CC)(CCCSCCOCCOCCN)NC(=O)c1ccc(C2CC2)c(Cc2ccc(F)cc2)n1  EC50 (Cnr2; cAMP, agonist): 3.2 nM
O=C(NCC[C@H](NCc1ccc(-c2ccccc2)cc1)c1nc2ccccc2[nH]1)c1ccc([N+](=O)[O-])o1  EC50 (STING1 H232R; reporter gene, inhibitor; THP1-Dual KI-hSTING-R232; 24 h, 1 h preincubation, with: diABZI 500 nM): 6100 nM
CCOC(=O)C(CC)(CCCSCCOCCOCCNC(=O)OC(C)(C)C)NC(=O)c1ccc(C2CC2)c(Cc2ccc(F)cc2)n1 (racemic)  EC50 (Cnr2; cAMP, agonist): 131 nM
Nc1ncnc2c1ncn2[C@@H]1O[C@H](COP(=O)(O)OP(=O)(O)OC[C@H]2OC(O)[C@H](O)[C@@H]2O)[C@@H](O)[C@H]1OP(=O)(O)O (some centres unmarked)  EC50 (TRPM2 (Nematostella vectensis, UniProt A7T1N0, N628C); agonist): 240 ± 20 nM
CC(C)(C)c1ccc(-c2ccc(C(=O)N[C@@H](CCNC(=O)c3ccc([N+](=O)[O-])o3)c3nc4ccccc4[nH]3)o2)cc1  EC50 (STING1 H232R; reporter gene, inhibitor; THP1-Dual KI-hSTING-R232; 24 h, 1 h preincubation, with: diABZI 500 nM): 4900 nM
CCOC(=O)C(CC)(CCCSCCOCCOCCN=[N+]=[N-])NC(=O)c1ccc(C2CC2)c(Cc2ccc(F)cc2)n1 (centres unmarked)  EC50 (Cnr2; cAMP, agonist): 5.4 nM
COc1ccc(C(=O)c2c(C(=O)NCCCN(C)C)oc3ccc(Cl)cc3c2=O)cc1OC  EC50 (GHSR (Homo sapiens, UniProt Q92847, R199A); intracellular Ca2+, agonist; HEK293T transiently transfected): 107 nM
N=C(c1ccc([N+](=O)[O-])o1)N1CCC(NC(=O)c2noc(-c3cc(F)ccc3F)n2)(c2nc3ccccc3[nH]2)CC1  EC50 (STING1 H232R; reporter gene, inhibitor; THP1-Dual KI-hSTING-R232; 24 h, 1 h preincubation, with: diABZI 500 nM): 3600 nM
CCOC(=O)C(CC)(CCCSCCOCCOCCOCCOCCNc1ccc([N+](=O)[O-])c2nonc12)NC(=O)c1ccc(C2CC2)c(Cc2ccc(F)cc2)n1 (centres unmarked)  EC50 (Cnr2; cAMP, agonist): 192 nM
O=C(N[C@@H](CCCCNC(=O)c1ccc([N+](=O)[O-])o1)c1nc2ccccc2[nH]1)c1ccc(-c2ccccc2)cn1  EC50 (STING1 H232R; reporter gene, inhibitor; THP1-Dual KI-hSTING-R232; 24 h, 1 h preincubation, with: diABZI 500 nM): 3200 nM
CCCCCCCC/C=C\CCCCCCCC(=O)OCC(O)COP(=O)(O)O (centres unmarked)  EC50 (LPAR1 (Homo sapiens, UniProt Q92633); G protein activation, agonist, BRET): 17.8 nM
O=C(N[C@@H](CCNC(=O)c1ccc([N+](=O)[O-])o1)c1nc2ccccc2[nH]1)c1ccc(-n2ccnc2)cc1  EC50 (STING1 H232R; reporter gene, inhibitor; THP1-Dual KI-hSTING-R232; 24 h, 1 h preincubation, with: diABZI 500 nM): 25100 nM
CCOC(=O)C(CC)(CCCSCCOCCOCCOCCNc1ccc([N+](=O)[O-])c2nonc12)NC(=O)c1ccc(C2CC2)c(Cc2ccc(F)cc2)n1 (centres unmarked)  EC50 (Cnr2; cAMP, agonist): 74 nM
COC1=C(C)OC(C)C1=O (centres unmarked)  EC50 (OR5K1 (Homo sapiens, UniProt Q8NHB7); cAMP luminescence, agonist; HEK293): 475000 nM
O=C(N[C@@H](CCCCNC(=O)c1ccc([N+](=O)[O-])o1)c1nc2ccccc2[nH]1)c1cnn(-c2ccccc2)c1  EC50 (STING1 H232R; reporter gene, inhibitor; THP1-Dual KI-hSTING-R232; 24 h, 1 h preincubation, with: diABZI 500 nM): 17300 nM
CCCCCCCC/C=C\CCCCCCCC(=O)NCCO  EC50 (Trpv1 (Mus musculus, UniProt Q704Y3, S513A); ion current, agonist, whole-cell patch clamp; 24 °C, +80 mV): 390 ± 320 nM
O=C(NC[C@@H](Cc1ccc(F)cc1)N1CCC(O)(C(F)(F)F)CC1)C1(c2ccc(Cl)cc2)CCCC1  EC50 (TRPA1 (Homo sapiens, UniProt O75762, I950V)): 14 nM
NCC(=O)N[C@@H](Cc1ccccc1)C(=O)N[C@@H](Cc1ccccc1)C(N)=O  EC50 (uncharacterized protein (Aplysia californica, UniProt A0ABM0K1K5); IP1 accumulation, agonist; CHO-K1 cells, transfected; inactive, value is lower bound): > 501000 nM
O=C(N[C@@H](CCCCNC(=O)c1ccc([N+](=O)[O-])o1)c1nc2ccccc2[nH]1)c1ccc(-c2ccccc2)nn1  EC50 (STING1 H232R; reporter gene, inhibitor; THP1-Dual KI-hSTING-R232; 24 h, 1 h preincubation, with: diABZI 500 nM): 4300 nM
O=C(Cc1ccc(OCc2ccccc2)cc1)NC1(C(=O)O)CCN(C(=O)c2ccc(-c3cccc(Cl)c3)cc2)CC1  EC50 (S1PR1 (Homo sapiens, UniProt P21453); cAMP, agonist, luciferase): > 10000 nM
CCOC(=O)[C@](CC)(CCCSCCOCCOCCNC(=O)CCCCCN1C(=CC=CC=CC2=[N+](C)c3ccc4ccccc4c3C2(C)C)C(C)(C)c2c1ccc1ccccc21)NC(=O)c1ccc(C2CC2)c(Cc2ccc(F)cc2)n1  EC50 (Cnr2; cAMP, agonist): 512 nM
CC1=NC(C)C(C)S1 (centres unmarked)  EC50 (OR5K1 (Homo sapiens, UniProt Q8NHB7, A2T/I280V/T15M/V39I/Y193C); cAMP, agonist; HEK293 transfected with OR5K1): 901000 ± 194000 nM
O=C(N[C@@H](CCCCNC(=O)c1ccc([N+](=O)[O-])o1)c1nc2ccccc2[nH]1)c1ccc(-c2cnccn2)cc1  EC50 (STING1 H232R; reporter gene, inhibitor; THP1-Dual KI-hSTING-R232; 24 h, 1 h preincubation, with: diABZI 500 nM): 5400 nM
COc1cc(C2C(NC(=O)c3ccc(NC(=O)OC(C)(C)C)cc3)(C(=O)O)C(c3ccc(OC(=O)c4cccs4)c(OC)c3)C2(NC(=O)c2ccc(NC(=O)OC(C)(C)C)cc2)C(=O)O)ccc1OC(=O)c1cccs1 (centres unmarked)  EC50 (GLP1R (Homo sapiens, UniProt P43220, E34A); cAMP, agonist): 5.01 nM

Some of these lines once more:
O=C(N[C@@H](CCCCNC(=O)c1ccc([N+](=O)[O-])o1)c1nc2ccccc2[nH]1)c1ccc(-c2ccccc2)nn1  EC50 (STING1 H232R; reporter gene, inhibitor; THP1-Dual KI-hSTING-R232; 24 h, 1 h preincubation, with: diABZI 500 nM): 4300 nM
Nc1ncnc2c1ncn2[C@@H]1O[C@H](COP(=O)(O)OP(=O)(O)OC[C@H]2OC(O)[C@H](O)[C@@H]2O)[C@@H](O)[C@H]1OP(=O)(O)O (some centres unmarked)  EC50 (TRPM2 (Nematostella vectensis, UniProt A7T1N0, N628C); agonist): 240 ± 20 nM
